{"data": "Published values collected from several papers", "note": "Lines come from different studies, so protocols differ."}
{"Structure (SMILES)": "Cn1cc(Nc2nc(N)nc(-c3cccc(-n4ccc5cc(C6CC6)cc(F)c5c4=O)c3CO)n2)cn1", "test system": "healthy subjects", "conditions": "oral, 300 mg tablet, fed high-fat breakfast", "endpoint": "subjects with vomiting", "value": "1%"}
{"Structure (SMILES)": "NCCONC(=O)[C@@H]1CC[C@@H]2CN1C(=O)N2OS(=O)(=O)O", "test system": "healthy Chinese male subjects", "conditions": "intravenous, 1 g", "endpoint": "subjects with serious adverse events", "value": "0%"}
{"Structure (SMILES)": "CC(C)c1nc(N(C)S(C)(=O)=O)nc(-c2ccc(F)cc2)c1/C=C/[C@@H](O)C[C@@H](O)CC(=O)O", "assay": "refers to: thirst", "test system": "healthy men", "conditions": "oral, dose not given, 8 days, treatment-emergent, crossover trial", "endpoint": "subjects with adverse event", "value": "4.5%"}
{"Structure (SMILES)": "CC[C@H](C)[C@H](NC(=O)[C@H](Cc1ccccc1)NC(=O)[C@H](CCC(=O)O)NC(=O)[C@H](CCCCNC(=O)COCCOCCNC(=O)COCCOCCNC(=O)CC[C@H](NC(=O)CCCCCCCCCCCCCCCCC(=O)O)C(=O)O)NC(=O)[C@H](C)NC(=O)[C@H](C)NC(=O)[C@H](CCC(N)=O)NC(=O)CNC(=O)[C@H](CCC(=O)O)NC(=O)[C@H](CC(C)C)NC(=O)[C@H](Cc1ccc(O)cc1)NC(=O)[C@H](CO)NC(=O)[C@H](CO)NC(=O)[C@@H](NC(=O)[C@H](CC(=O)O)NC(=O)[C@H](CO)NC(=O)[C@@H](NC(=O)[C@H](Cc1ccccc1)NC(=O)[C@@H](NC(=O)CNC(=O)[C@H](CCC(=O)O)NC(=O)C(C)(C)NC(=O)[C@@H](N)Cc1cnc[nH]1)[C@@H](C)O)[C@@H](C)O)C(C)C)C(=O)N[C@@H](C)C(=O)N[C@@H](Cc1c[nH]c2ccccc12)C(=O)N[C@@H](CC(C)C)C(=O)N[C@H](C(=O)N[C@@H](CCCNC(=N)N)C(=O)NCC(=O)N[C@@H](CCCNC(=N)N)C(=O)NCC(=O)O)C(C)C", "test system": "type 2 diabetes patients", "conditions": "dose not given", "endpoint": "subjects with upper abdominal pain", "value": "13.3%"}
{"Structure (SMILES)": "COc1c(N2C[C@@H]3CCCN[C@@H]3C2)c(F)cc2c(=O)c(C(=O)O)cn(C3CC3)c12", "test system": "healthy volunteers", "conditions": "400 mg", "endpoint": "subjects with any adverse event", "value": "48%"}
{"Structure (SMILES)": "CC(C)n1c(Nc2cccnc2)nc2cnc(Nc3ccc(N4CCN(C)CC4)cc3)nc21", "assay": "refers to: gum pain", "test system": "healthy male subjects", "conditions": "oral, 100 mg, study, with: itraconazole", "endpoint": "subjects with adverse event", "value": "7.1%"}
{"Structure (SMILES)": "O=C(O)CCC(=O)O.[2H]C([2H])([2H])Oc1cc(C)c2[nH]ccc2c1CN1CC[C@@H](C2CC2)C[C@H]1c1ccc(C(=O)O)cc1", "assay": "multiple ascending dose", "test system": "healthy Chinese subjects", "conditions": "300 mg once daily", "endpoint": "subjects with reduced potassium TEAE", "value": "0%"}
{"Structure (SMILES)": "CC[C@H](C)[C@H](NC(=O)[C@H](Cc1ccccc1)NC(=O)[C@H](CCC(=O)O)NC(=O)[C@H](CCCCNC(=O)COCCOCCNC(=O)COCCOCCNC(=O)CC[C@H](NC(=O)CCCCCCCCCCCCCCCCC(=O)O)C(=O)O)NC(=O)[C@H](C)NC(=O)[C@H](C)NC(=O)[C@H](CCC(N)=O)NC(=O)CNC(=O)[C@H](CCC(=O)O)NC(=O)[C@H](CC(C)C)NC(=O)[C@H](Cc1ccc(O)cc1)NC(=O)[C@H](CO)NC(=O)[C@H](CO)NC(=O)[C@@H](NC(=O)[C@H](CC(=O)O)NC(=O)[C@H](CO)NC(=O)[C@@H](NC(=O)[C@H](Cc1ccccc1)NC(=O)[C@@H](NC(=O)CNC(=O)[C@H](CCC(=O)O)NC(=O)C(C)(C)NC(=O)[C@@H](N)Cc1cnc[nH]1)[C@@H](C)O)[C@@H](C)O)C(C)C)C(=O)N[C@@H](C)C(=O)N[C@@H](Cc1c[nH]c2ccccc12)C(=O)N[C@@H](CC(C)C)C(=O)N[C@H](C(=O)N[C@@H](CCCNC(=N)N)C(=O)NCC(=O)N[C@@H](CCCNC(=N)N)C(=O)NCC(=O)O)C(C)C", "test system": "Caucasian subjects", "conditions": "0.5 mg", "endpoint": "subjects with mild AEs", "value": "37.5%"}
{"Structure (SMILES)": "C=CC(=O)NC1CCN(c2ncc3ncnc(Nc4ccc(Oc5ccc6c(c5)ncn6C)c(C)c4)c3n2)CC1", "test system": "healthy male volunteers", "conditions": "oral, 60 mg, 2 weeks", "endpoint": "subjects discontinuing due to adverse events", "value": "0%"}
{"Structure (SMILES)": "O=C(Nc1cnccc1Cl)N1CCN(Cc2ccc3c(c2)OC(F)(F)O3)CC1", "assay": "multiple ascending dose", "test system": "elderly men and women", "conditions": "100 mg, at least 1 treatment-emergent event", "endpoint": "subjects with adverse events", "value": "100%"}
{"Structure (SMILES)": "Cc1c(Cl)c(C)[n+]([O-])c(Cl)c1-c1noc(-c2cc(O)c(O)c([N+](=O)[O-])c2)n1", "test system": "healthy Caucasian subjects", "conditions": "oral, 50 mg, 10 days", "endpoint": "subjects with any serious TEAE", "value": "0%"}
{"Structure (SMILES)": "Cc1nc2ccc(F)cc2n1-c1nc(N)c(F)c(Nc2ccc(C(F)(F)F)cc2)n1", "test system": "leiomyosarcoma patients", "conditions": "300 mg, with: dacarbazine 1000 mg/m2", "endpoint": "subjects with thrombocytopenia", "value": "52.4%"}
{"Structure (SMILES)": "C[C@H]1O[C@@H](O[C@H]2[C@@H](O)C[C@H](O[C@H]3[C@@H](O)C[C@H](O[C@H]4CC[C@@]5(C)[C@H](CC[C@@H]6[C@@H]5C[C@@H](O)[C@]5(C)[C@@H](C7=CC(=O)OC7)CC[C@]65O)C4)O[C@@H]3C)O[C@@H]2C)C[C@H](O)[C@@H]1O", "assay": "refers to: phlebitis", "test system": "healthy men", "conditions": "oral, dose not given, 8 days, treatment-emergent, crossover trial", "endpoint": "subjects with adverse event", "value": "0%"}
{"Structure (SMILES)": "CC#CC(=O)N[C@H]1CCCN(c2c(F)cc(C(N)=O)c3[nH]c(C)c(C)c23)C1", "test system": "healthy volunteers", "conditions": "oral, 0.3 mg once daily, 14 days", "endpoint": "subjects with adverse events", "value": "33.3%"}
{"Structure (SMILES)": "C[C@H]1CNCCCN1S(=O)(=O)c1cccc2cncc(F)c12", "test system": "healthy adult men", "conditions": "ocular, 1 drop per eye twice daily, 8 days, adverse drug reaction", "endpoint": "subjects with eye irritation", "value": "0%"}
{"note": "Repeated from above:"}
{"Structure (SMILES)": "CC(C)n1c(Nc2cccnc2)nc2cnc(Nc3ccc(N4CCN(C)CC4)cc3)nc21", "assay": "refers to: gum pain", "test system": "healthy male subjects", "conditions": "oral, 100 mg, study, with: itraconazole", "endpoint": "subjects with adverse event", "value": "7.1%"}
{"Structure (SMILES)": "O=C(O)CCC(=O)O.[2H]C([2H])([2H])Oc1cc(C)c2[nH]ccc2c1CN1CC[C@@H](C2CC2)C[C@H]1c1ccc(C(=O)O)cc1", "assay": "multiple ascending dose", "test system": "healthy Chinese subjects", "conditions": "300 mg once daily", "endpoint": "subjects with reduced potassium TEAE", "value": "0%"}
